Measured values gathered from unrelated publications.
A part holds a random share of what one study measured. Changes are numbered by the printed parent chain.

Set 1
Target: Sal-like protein 4, full length isoform B (SALL4, Homo sapiens, UniProt Q9UJQ4-2, residues 1-616)
Technique: universal PBM
Form: double-stranded DNA, one strand shown
Matrix: in vitro
Concentration: not given
Setting: 8-mer, flanks averaged, mean of replicates
Reading: higher = stronger binding
Oligonucleotide	E-score
TCAAATGA	0.138
CAGAGCTA	-0.125
CGAGGCGA	-0.167
CTCCGCCA	-0.288
GGTCGTGA	-0.00962
CTCAGGTA	-0.0607
CTAGTGCA	0.156
AGGAACGC	-0.259
CGAACGGA	-0.105
ATCTCGGA	-0.149
TCTCTGAA	-0.107
GATCCCGC	-0.229
CACCTTGG	-0.258
CACTGGGG	-0.292
CAGGCCGG	-0.364
TCGGGCCA	-0.33
ACCTCCAG	-0.0814
GAGGCTGC	-0.337
TCGATCCA	-0.0718
AGAATACG	0.184
GAGGTGGC	-0.137
CCAGGGCC	-0.43
GGATGCAA	0.0871
GAACCCCA	-0.28
CGATTCAC	-0.00385

Set 2
Target: CCND3, cyclin fold, Cln2 fusion (human)
Technique: yeast growth competition, sequencing
Matrix: yeast
Setting: weak parent motif
Baseline: not given
Reading: higher = stronger binding
Starting sequence: WEE1 docking peptide (human); HKTFRKLRLFDTP; partner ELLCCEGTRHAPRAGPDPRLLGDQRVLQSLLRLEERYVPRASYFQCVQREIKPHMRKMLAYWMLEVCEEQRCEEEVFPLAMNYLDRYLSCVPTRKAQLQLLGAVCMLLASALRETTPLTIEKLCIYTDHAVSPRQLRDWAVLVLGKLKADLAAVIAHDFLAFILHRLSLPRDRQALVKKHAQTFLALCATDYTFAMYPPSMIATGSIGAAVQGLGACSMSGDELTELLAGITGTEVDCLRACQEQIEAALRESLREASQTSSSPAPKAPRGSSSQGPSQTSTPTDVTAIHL
Variant	normalised enrichment score
D11G	-0.00551
T12G	0.26
H1K	0.124
K6D	0.0536
L9R	0.143
T12Q	0.287
K6P	0.153
R5L	0.065
R5I	0.122
T3G	0.169
K6I	0.147

Set 3
Target: Ras GTPase-activating protein-binding protein 1, C-terminal RGG region (G3BP1, Homo sapiens, UniProt Q13283)
Chain of UniProt Q13283 (whole entry, looked up): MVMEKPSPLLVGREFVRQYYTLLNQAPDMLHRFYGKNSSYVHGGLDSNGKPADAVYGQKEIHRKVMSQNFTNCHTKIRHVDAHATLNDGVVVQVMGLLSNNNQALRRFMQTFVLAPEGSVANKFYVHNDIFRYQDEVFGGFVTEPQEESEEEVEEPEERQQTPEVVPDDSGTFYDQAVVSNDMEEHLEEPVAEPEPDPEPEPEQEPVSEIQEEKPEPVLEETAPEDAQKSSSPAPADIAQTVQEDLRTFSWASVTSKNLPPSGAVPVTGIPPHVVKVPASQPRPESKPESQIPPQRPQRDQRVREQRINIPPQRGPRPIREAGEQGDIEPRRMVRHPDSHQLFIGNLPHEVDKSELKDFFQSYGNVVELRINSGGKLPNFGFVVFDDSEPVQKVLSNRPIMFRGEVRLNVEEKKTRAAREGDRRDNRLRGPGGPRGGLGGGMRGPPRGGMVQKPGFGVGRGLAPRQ
Technique: RNA Bind-n-Seq
Form: RNA
Matrix: in vitro
Concentration: 1 µM
Setting: whole 134-nt RNA, ends assumed
Together with: 150 mM KCl
Baseline: input library
Reading: higher = stronger binding
Oligonucleotide	log2 enrichment
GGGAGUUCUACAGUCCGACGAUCUAACUUUAGAGGAGGCUCUGAUGGAUAUGGCAGUGGACGUGGAUUUGGGGAUGGCUAUAAUGGGUAUGGAGGAGGACCUGGAGGUGGCAAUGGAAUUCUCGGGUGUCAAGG	-1.36
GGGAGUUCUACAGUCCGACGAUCUCAAGUCCUGUGCUACACAUCGUAUGUACCGAAUCGGGGUGGGGUGGGGAGGGGAAAGUAUUAUGUUACGCCGUUCGGAUCUGCACUUCCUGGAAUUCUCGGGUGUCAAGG	2.82
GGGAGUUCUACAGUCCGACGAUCCCUCAAGUCCUGUGCUACACAUCGUAUGUACCGAAUCGGAGGGAGGGGAGGGGAAAGUAUUAUGUUACGCCGUUCGGAUCUGCACUUCCAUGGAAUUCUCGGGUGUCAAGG	-0.0344
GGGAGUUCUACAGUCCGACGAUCCACAGACAACACGCACCCACACAGACACAGAGUGAAGGGGUUGGGAUGGGGACAGGGUGCACAGCAGGGCGGGGUAGGACCCCAGCCCCUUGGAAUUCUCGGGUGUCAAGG	-0.171
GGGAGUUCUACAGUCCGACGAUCUUCCCUGGUGUGAUUCCGUCCUGCGCGGUUGUUCUCUGGAGCAGCGUUCUUUUAUCUCCGUCCGCCUUCUCUCCUACCUAAGUGCGUGCCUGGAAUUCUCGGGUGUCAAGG	0.483
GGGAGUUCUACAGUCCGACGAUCUAACUUUAGAGGAGGAUCUGAUGGAUAUGGCAGUGGACGUGGAUUUGGGGAUGGCUAUAAUGGGUAUGGAGGAGGACCUCGAGGUGGCAAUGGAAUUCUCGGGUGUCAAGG	-0.786
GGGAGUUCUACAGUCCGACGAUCCUGUGCUACACAUCGUAUGUACCGAAUCGGGCCCCCCCGGGCCCCCCCGGGGCCCCCCCGGAAAGUAUUAUGUUACGCCGUUCGGAUCUGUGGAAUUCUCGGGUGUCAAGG	-1.76
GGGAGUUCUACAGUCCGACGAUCGCAGGAAGUAAAAACAAAUGGAAAUGCUUCGGAUAGUGGCAGGGGUGGGGGUUGCUAAGGAAAGGGAAAGAUGGGAGUGGGUAAAGAGUUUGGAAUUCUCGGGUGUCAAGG	1.58
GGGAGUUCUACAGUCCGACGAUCUCCUCAAGUCCUGUGCUACACAUCGUAUGUACCGAAUCGGAGGGGAGGGAGGAAAGUAUUAUGUUACGCCGUUCGGAUCUGCACUUCCAGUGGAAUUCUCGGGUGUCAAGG	-0.636
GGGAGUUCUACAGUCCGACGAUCGUCCUGUGCUACACAUCGUAUGUACCGAAUCGGGCCCCCGGGGCCCCCGGGGCCCCCGGAAAGUAUUAUGUUACGCCGUUCGGAUCUGCAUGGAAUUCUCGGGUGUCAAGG	-1.69

Set 4
Target: CEP164, C-terminal peptide (human)
Technique: DHFR complementation, deep sequencing
Matrix: yeast
Setting: single substitutions, model-inferred values
Baseline: wild type
Reading: higher = weaker binding
Starting sequence: PDZK1, PDZ domain 2 (human); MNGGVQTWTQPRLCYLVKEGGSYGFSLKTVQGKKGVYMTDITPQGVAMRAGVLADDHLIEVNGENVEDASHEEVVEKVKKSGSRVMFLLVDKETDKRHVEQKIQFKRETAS; partner HNRVKVYRF
Variant	binding free energy change [kcal/mol]
L58M	0.438
P43E	0.063
K102A	-0.0756
R49D	0.747
E108Q	-0.461
Q6K	-0.0971
G24D	0.687
N2R	-0.136
M86W	-0.0335
L13D	0.505
D68F	0.116
P11S	0.132
Q104V	-0.108
G82M	0.617

Set 5
Target: Histone acetyltransferase KAT6A, winged helix 1, GST fusion (KAT6A, Homo sapiens, UniProt Q92794, residues 1-85)
Technique: protein binding microarray
Form: double-stranded DNA, one strand shown
Matrix: in vitro
Concentration: not given
Setting: 8-mer, flanks averaged, mean of 2 arrays, mostly near background
Baseline: not given
Reading: higher = stronger binding
Residues (chain): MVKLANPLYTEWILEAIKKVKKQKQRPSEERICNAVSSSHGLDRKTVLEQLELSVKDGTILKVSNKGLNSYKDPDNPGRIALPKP
Oligonucleotide	E-score
ATCCCCTC	-0.133
ATTCTTCA	-0.271
AAGAGACT	-0.157
CATGTTTC	0.0871
CATATGAG	-0.0997
CCACGTAG	-0.172
ACGCCCTC	0.252
ACGGAGGA	0.056
ACCTAACC	0.0263
AATCGGGC	0.0805
CATTACCC	0.0468
ACTTCGCT	0.0348
CGCTACTC	0.249
AGGATAAT	-0.116
CCTGGAGA	-0.229
CGAAGGCC	0.0166
ATGATGTG	-0.0824
AGAATGGG	-0.21
ATGAGCAG	-0.255
GATCGGGC	0.195
AGAGTGCT	-0.0752
ATGGCGAC	0.00207

Other studies, line by line
Substance	target	test	test system	conditions	scale	quantity	result
PhoQ, residues 284 288 289 292 302 303 TLMATV	PhoP, residues 12 14 15 18 19 SGWQI (Escherichia coli, UniProt P23836)	Sort-seq, item: YFP reporter	E. coli	PhoQ-PhoP variant library, together with: 10 µM Mg2+	baseline: high Mg2+ state, higher = stronger signaling	fold induction	24.5

Excerpt of the above (set 1):
Oligonucleotide	E-score
GGATGCAA	0.0871
CACCTTGG	-0.258
TCGATCCA	-0.0718
ACCTCCAG	-0.0814
GATCCCGC	-0.229
